Assay results gathered from unrelated publications.
Protocols differ between the studies behind these lines. Numbers after ± are the reported error.

SMILES	tested on	assay	system	conditions	measurement	value
O=C(O)CCC(NP(=O)(O)OCCC[C@@H](NC(=O)CCC(NC(=O)CCCCCNC(=O)CCCCCNC(=O)c1ccc([18F])cc1)C(=O)O)C(=O)O)C(=O)O (stereo partly shown)	CWR22Rv1 tumour model	–	host not given, muscle	intravenous, 1 h, tumour-bearing	tracer uptake	0.15 %ID/g
COc1ccc(CNc2nc(N3CCC[C@H]3CO)ncc2C(=O)NNC(=O)c2cnc(N3CCC[C@H]3CO)nc2NCc2ccc(OC)c(Cl)c2)cc1Cl	Salmonella typhimurium	–	TA102	1000 µg/plate	revertant count	201 ± 7
CC(C)[C@H](NC(=O)CNC(=O)[C@H](CCC(N)=O)NC(=O)[C@H](C)N)C(=O)O	–	–	human	10 mg/kg, 3 days, thrice daily dosing	discontinuation due to adverse events	0%
O=C(O)CCC(NP(=O)(O)OCCC[C@@H](NC(=O)CCC(NC(=O)c1ccc([18F])cc1)C(=O)O)C(=O)O)C(=O)O (stereo partly shown)	CWR22Rv1 tumour model	–	host not given, muscle	intravenous, 1 h, tumour-bearing	tracer uptake	0.29 %ID/g
C[C@@](O)(C(F)F)[C@H](NC(=O)c1ccc(C#CC#CC2CC2)cc1)C(=O)NO	–	–	CD-1 mice	oral, 40 mg/kg, not fasted	apparent volume of distribution (Vz/F)	32 ± 18 L/kg
COc1cc(C(=O)NCCOCCOCCOCCNC(=O)c2ccc([18F])nc2)ccc1NC(=O)C1NC(CC(C)(C)C)C(C#N)(c2ccc(Cl)cc2F)C1c1cccc(Cl)c1F (stereo not shown)	HepG2 tumour model	–	host not given, spleen	30 min, tumour-bearing	tracer uptake	4.08 %ID/g
CC[C@H](C)C(=O)N1CCC(NC(=O)Nc2ccc(OC(F)(F)F)c(F)c2)CC1	–	–	healthy volunteers, both sexes	oral, 8 mg, fasted state	subjects with treatment-emergent photophobia	0%
CN[C@](C)(C[18F])C(=O)O	SK-OV-3 tumour model	–	host not given, kidney	30 min, tumour-bearing	tracer uptake	12 %ID/g
COc1ccc(CNc2nc(N3CCC[C@H]3CO)ncc2C(=O)NN)cc1Cl	Salmonella typhimurium	–	TA100	1000 µg/plate, 48 h	revertant count	122 ± 11
CCC(=O)N(C)c1ccc(Cl)c(Cl)c1	Salmonella typhimurium	Ames test	TA98	0.10 mg/plate, with rat liver S9	revertants	15 ± 2 revertants/plate

Excerpt of the above:
SMILES	tested on	assay	system	conditions	measurement	value
COc1ccc(CNc2nc(N3CCC[C@H]3CO)ncc2C(=O)NN)cc1Cl	Salmonella typhimurium	–	TA100	1000 µg/plate, 48 h	revertant count	122 ± 11
